Experimental data gathered from unrelated publications.
Compare with care: the assays were run in different laboratories. ≈ marks a conversion by molar mass, not a printed value.
Organism: Acinetobacter baumannii

| SMILES | test | test system | setting | measurement | result |
| --- | --- | --- | --- | --- | --- |
| CCCCCCCCCCCCCCCC(=O)NCCCC[C@H](N)C(=O)N[C@@H](CCCCN)C(=O)N[C@@H](CCCCN)C(=O)N[C@@H](CCCCN)C(=O)N[C@@H](CCCCN)C(=O)N[C@@H](CCCCN)C(N)=O |  | clinical isolate |  | MBC | 128 µg/mL (≈ 125 µM) |
| NCCc1cccc(-c2nc(=O)c3ccccc3s2)n1 | microbial growth | NCTC13424 |  | EC50 | 27 µM |
| CC[C@@H](C)[C@@H](NC(=O)[C@@H](C)NC(=O)[C@@H](CCCCN)NC(=O)[C@@H](CC(C)C)NC(=O)[C@@H](CC(C)C)NC(=O)[C@H](NC(=O)[C@@H](CCCCN)NC(=O)[C@@H](CC(C)C)NC(=O)[C@@H](CCCCN)NC(=O)[C@@H](CCCCN)NC(=O)[C@@H](CCCCN)NC(=O)[C@@H](CCCCN)NC(=O)[C@@H](C)NC(=O)[C@@H](CCCCN)NC(=O)[C@@H](CO)NC(=O)[C@@H](Cc1ccccc1)NC(=O)[C@H](NC(=O)[C@@H](CCCCN)NC(=O)[C@@H](CC(C)C)NC(=O)[C@@H](Cc1ccccc1)NC(=O)[C@@H](CO)NC(=O)[C@@H](CCCCN)NC(=O)[C@@H](Cc1c[nH]c2ccccc12)NC(=O)[C@@H](CCCCN)NC(C)=O)[C@H](C)O)[C@H](C)O)C(=O)N[C@H](CO)C(=O)N[C@H](CCCCN)C(N)=O |  | 11 isolates |  | MIC geometric mean | 0.8 µM (≈ 2.5 µg/mL) |
| CC(C)C[C@H](NC(=O)[C@H](Cc1ccc(O)cc1)NC(=O)[C@@H]1CCCN1C(=O)[C@H](CCCNC(=N)N)NC(=O)[C@@H]1CCCN1C(=O)[C@H](CCCCN)NC(=O)[C@H](CC(=O)O)NC(=O)[C@@H]1CCCN1C(=O)[C@H](CCCNC(=N)N)NC(=O)C1(N)CCCCC1)C(=O)N1CCC[C@H]1C(=O)N[C@@H](CCCNC(=N)N)C(=O)N1CCC[C@H]1C(=O)N[C@@H](CCCNC(=N)N)C(=O)N1CCC[C@H]1C(=O)N1CCC[C@H]1C(=O)N[C@@H](CCCNC(=N)N)C(=O)N1CCC[C@H]1C(=O)N[C@H](C(=O)N[C@@H](CCCNC(=N)N)C(=O)N[C@@H](CSc1c(F)c(F)c(SC[C@H](NC(=O)[C@H](CCCNC(=N)N)NC(=O)[C@@H](NC(=O)[C@@H]2CCCN2C(=O)[C@H](CCCNC(=N)N)NC(=O)[C@@H]2CCCN2C(=O)[C@@H]2CCCN2C(=O)[C@H](CCCNC(=N)N)NC(=O)[C@@H]2CCCN2C(=O)[C@H](CCCNC(=N)N)NC(=O)[C@@H]2CCCN2C(=O)[C@H](CC(C)C)NC(=O)[C@H](Cc2ccc(O)cc2)NC(=O)[C@@H]2CCCN2C(=O)[C@H](CCCNC(=N)N)NC(=O)[C@@H]2CCCN2C(=O)[C@H](CCCCN)NC(=O)[C@H](CC(=O)O)NC(=O)[C@@H]2CCCN2C(=O)[C@H](CCCNC(=N)N)NC(=O)C2(N)CCCCC2)C(C)C)C(=O)NN)c(F)c1F)C(=O)NN)C(C)C | DiOC2 flow cytometry |  | 0.1 × MBC | membrane depolarization | > 50% |
| Oc1ccc(C(F)(F)F)cc1-c1nc2c(Cl)cc(Cl)cc2[nH]1 |  | colistin-resistant | concentration not given, added: polymyxin B nonapeptide up to 10 µg/mL | MIC change | no effect |
| COc1ccc(-c2ccn(CC[C@](C)(C(=O)NO)S(C)(=O)=O)c(=O)c2)c(F)c1 | microbial growth, broth dilution |  | clinical isolate | MIC90 | > 64 µg/mL |
| Cc1ccc2ccc3ccc(C)nc3c2n1.Cc1ccc2ccc3ccc(C)nc3c2n1.O.[Cl-].[Cl-].[Cl-].[Yb+3] | bacterial growth |  |  | inoculation time | 48 h |
| CCCCCCCCCCCCCCCCCC(=O)N[C@@H](CCCCN)C(=O)N[C@@H](CCCCN)C(=O)N[C@@H](CCCNC(=N)N)C(=O)N[C@@H](CCCCN)C(N)=O |  | clinical isolate |  | MBC | 128 µg/mL (≈ 155 µM) |

Some of these lines once more:
| SMILES | test | test system | setting | measurement | result |
| --- | --- | --- | --- | --- | --- |
| NCCc1cccc(-c2nc(=O)c3ccccc3s2)n1 | microbial growth | NCTC13424 |  | EC50 | 27 µM |
